Assay results collected from several papers.
Parts stem from different laboratories: compare values within a part only. Substitutions count along the parent as printed.

Set 1
Target: CCNB3, cyclin fold, Cln2 fusion (human)
Method: yeast growth competition, sequencing
Matrix: yeast
Setting: weak parent motif
Relative to: not given
Reading: higher = stronger binding
Parent: PKMYT1 docking peptide (human); SFEPRNLLSLFED
Under “normalised enrichment score”, `R5L` is recorded as 0.513.
Under “normalised enrichment score”, `F11S` is recorded as 0.67.
`P4F` — result for “normalised enrichment score”: 0.851.
Under “normalised enrichment score”, `N6F` is recorded as 0.62.
`L10A` — result for “normalised enrichment score”: 0.478.
`P4L`: “normalised enrichment score” 0.421.
For `E3W`, “normalised enrichment score” read 0.34.
`S1P`: “normalised enrichment score” 0.414.

Set 2
Target: Ras GTPase-activating protein-binding protein 1, full length (G3BP1, Homo sapiens, UniProt Q13283)
Sequence of UniProt Q13283 (whole entry, looked up): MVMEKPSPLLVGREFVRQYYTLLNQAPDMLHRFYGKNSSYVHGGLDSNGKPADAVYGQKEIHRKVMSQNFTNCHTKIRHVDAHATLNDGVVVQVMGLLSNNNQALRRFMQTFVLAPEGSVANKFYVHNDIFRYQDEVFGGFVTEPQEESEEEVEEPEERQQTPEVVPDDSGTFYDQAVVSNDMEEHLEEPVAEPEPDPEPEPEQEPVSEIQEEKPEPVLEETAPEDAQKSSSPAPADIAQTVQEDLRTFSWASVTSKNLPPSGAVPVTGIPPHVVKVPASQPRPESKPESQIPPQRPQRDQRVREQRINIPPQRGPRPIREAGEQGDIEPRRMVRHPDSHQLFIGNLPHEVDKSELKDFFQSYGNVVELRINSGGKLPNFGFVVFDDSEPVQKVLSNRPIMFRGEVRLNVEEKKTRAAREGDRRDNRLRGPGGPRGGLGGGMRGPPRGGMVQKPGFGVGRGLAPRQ
Method: RNA Bind-n-Seq
Form: RNA
Matrix: in vitro
Tested at: 200 nM
Setting: whole 134-nt RNA, ends assumed
With: 150 mM LiCl
Relative to: input library
Reading: higher = stronger binding
Library: 7-deaza-guanosine replaces G
For `GGGAGUUCUACAGUCCGACGAUCAAGUCCUGUGCUACACAUCGUAUGUACCGAAUCGGGUUUGGGAAAAAAAGGGUGGGAAAGUAUUAUGUUACGCCGUUCGGAUCUGCACUUUGGAAUUCUCGGGUGUCAAGG`, the log2 enrichment was -0.788.
The log2 enrichment of `GGGAGUUCUACAGUCCGACGAUCUGCGGGCCGAGAAUCGGGAGCUGGGCAAACGCGUACAGGCACUGCAGGAGGAGAGUCGCUACCUACGGGCAGUCUUAGCCAACGAGACUGUGGAAUUCUCGGGUGUCAAGG` is reported as -0.381.
For `GGGAGUUCUACAGUCCGACGAUCUGACUUUAGGAGAUACCUUAACUCGACGUUCCAUUAGCCAGCAGAAGUCCGGAGUUUCCAUUACCAUUGAUGACCCAGUCCGAACUGCCCUGGAAUUCUCGGGUGUCAAGG`, the log2 enrichment was -0.426.
For `GGGAGUUCUACAGUCCGACGAUCGUCCUGUGCUACACAUCGUAUGUACCGAAUCGGGAAAAAAAGGGAGGGAAAAAAAGGGAAAGUAUUAUGUUACGCCGUUCGGAUCUGCACUGGAAUUCUCGGGUGUCAAGG`, the log2 enrichment was 0.289.

Set 3
Target: Histone acetyltransferase KAT6A, winged helix 2, GST fusion (KAT6A, Homo sapiens, UniProt Q92794, residues 85-181)
Method: protein binding microarray
Form: double-stranded DNA, one strand shown
Matrix: in vitro
Tested at: not given
Setting: 8-mer, flanks averaged, mean of 2 arrays, mostly near background
Relative to: not given
Reading: higher = stronger binding
Residues (chain): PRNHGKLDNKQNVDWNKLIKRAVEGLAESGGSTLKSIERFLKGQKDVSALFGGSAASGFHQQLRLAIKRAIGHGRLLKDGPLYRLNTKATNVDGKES
With `CACTCATG` the E-score was -0.207.
For `GGATTCCC`, the E-score was 0.00105.
With `ATGAGACA` the E-score was 0.0139.
With `CACCGAAC` the E-score was -0.06.
With `AGTCCGGG` the E-score was 0.148.
`GACTACGA` has an E-score of -0.105.
With `ACATCGTA` the E-score was -0.124.
`GATTGCAC` gave an E-score of 0.0805.
For `AACTGAGC`, the E-score was 0.0802.
`CTGTCCTA` has an E-score of -0.0448.
`CCACCGAG` gave an E-score of -0.0478.
For `CCAGACGA`, the E-score was 0.0102.
`CCTTTTCC` has an E-score of -0.0318.
`GGCTTACA` gave an E-score of -0.0614.
`CGAATAAG` has an E-score of -0.0389.

Set 4
Target: Sal-like protein 4, full length isoform B (SALL4, Homo sapiens, UniProt Q9UJQ4-2, residues 1-616)
Method: universal PBM
Form: double-stranded DNA, one strand shown
Matrix: in vitro
Tested at: not given
Setting: 8-mer, flanks averaged, mean of replicates
Reading: higher = stronger binding
Target sequence (chain): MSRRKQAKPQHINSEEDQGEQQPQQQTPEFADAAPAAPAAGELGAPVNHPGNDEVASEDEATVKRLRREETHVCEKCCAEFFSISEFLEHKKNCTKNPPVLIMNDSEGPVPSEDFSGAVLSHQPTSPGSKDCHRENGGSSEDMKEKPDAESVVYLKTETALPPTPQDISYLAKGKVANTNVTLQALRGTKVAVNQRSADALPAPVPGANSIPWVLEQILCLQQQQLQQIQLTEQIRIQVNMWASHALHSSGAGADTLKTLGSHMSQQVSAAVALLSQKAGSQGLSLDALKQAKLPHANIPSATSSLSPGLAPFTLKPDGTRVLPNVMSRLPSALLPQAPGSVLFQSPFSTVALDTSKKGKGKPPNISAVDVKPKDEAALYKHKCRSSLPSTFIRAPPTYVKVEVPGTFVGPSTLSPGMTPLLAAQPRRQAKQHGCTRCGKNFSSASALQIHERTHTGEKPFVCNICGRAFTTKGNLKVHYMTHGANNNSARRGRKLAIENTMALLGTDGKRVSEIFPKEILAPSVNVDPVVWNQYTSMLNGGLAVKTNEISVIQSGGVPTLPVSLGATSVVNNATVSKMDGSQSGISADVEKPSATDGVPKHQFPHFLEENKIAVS
`AACCTACG` gave an E-score of 0.0117.
The E-score of `GCTTTAAA` is reported as 0.00422.
`ATTTGGGG` gave an E-score of -0.0662.
For `GGGTTCGA`, the E-score was -0.238.
`ATAGCGCA` has an E-score of 0.192.
`AGCAGTCG` has an E-score of -0.229.
`AACGATCA` has an E-score of 0.0255.
With `CTAAAATA` the E-score was 0.259.
